Experimental data gathered from unrelated publications.
Protocols differ between the studies behind these lines. “And” joins repeats or separate records; there may be more than shown. ± marks the error that the study gave.

Cc1nsc(-c2nnc3n2CCN(C(=O)c2ccc(F)cc2)[C@@H]3C)n1: “brain fraction unbound” > 50% (equilibrium dialysis; rat, brain homogenate; 5 µM, 4 h, pH 7.4).
The TEAE incidence of C[C@@H](N)C1CCN(S(=O)(=O)c2cccc3cnccc23)CC1 is reported as 0% (refers to: Tachycardia; healthy volunteers; 150 mg, fasted).
Under “treatment-related diarrhoea incidence”, CNC(=O)c1ccc(-c2cnc3ncc(Cc4ccc5ncccc5c4)n3n2)cc1F is recorded as 11.1% (healthy human subjects; oral, dose not given, all grades, with: itraconazole; baseline: subjects).
Oc1ccc(/C=C/c2cc(O)cc(O)c2)cc1 gave an alkaline phosphatase of 287 IU/L and 342 IU/L and 416 IU/L (rat, azoxymethane-injected, blood at sacrifice; 10 mg/kg).
CCCC1CCC(c2ccc(-c3ccc(F)c(F)c3)cc2)CC1 (stereo not shown) gave a fetal accumulation of 1.23 ± 1.71 ng/g (Sprague-Dawley rat, female, fetus; 5000 ng/mL in perfusate, 50 (unit not given), high dose, mixture of 21 LCMs).
With COc1cc2c(c(O)c1OC)C(=O)c1c(cc(C)c(O)c1OC)C2=O the cell viability was 33.2 ± 6.86% (HK-2 co-cultured with HepaRG; MTT; 133.33 µM, 24 h; baseline: untreated control).
COc1cccc(OC)c1-c1cc(C(=O)NC2(C(=O)O)C3CC4CC(C3)CC2C4)nn1-c1ccc(C(=O)N(C)CCCN(C)CCCN(C)C(=O)CN2CCN(CC(=O)[O-])CCN(CC(=O)[O-])CCN(CC(=O)[O-])CC2)cc1C(C)C.[177Lu+3] (stereo not shown) gave a tumour-to-kidney ratio of 17.1 (mouse, HT-29 xenograft; 24 h post injection, biodistribution; baseline: tumour over kidney uptake).
CCc1cc(C(=O)NC)c2nccc(N3CCc4c(cc(Cn5ccnc5)cc4-c4cn(C)nc4C(F)(F)F)C3=O)c2c1: “brain weight change” -1.9% (Sprague Dawley rat; oral, 50 mg/kg once daily, 7 days; baseline: vehicle).
For CCN1/C(=C/C(C)=O)Sc2ccc(F)cc21, “diastolic blood pressure change” read 114 ± 14.1% (cynomolgus monkey; oral, 10 mg/kg, 4 h post-dose; baseline: pre-dose).
Under “adverse event incidence”, O=C(COc1ccc(Cl)cc1)NC12CC(c3nnc([C@H]4C[C@@H](OC(F)(F)F)C4)o3)(C1)C2 is recorded as 44.4% (refers to: Headache; human; 200 mg once daily, 28 (unit not given)).
For Cc1ccc([C@@H]2O[C@H](CO)[C@@H](O)[C@H](O)[C@H]2O)cc1Cc1ccc(-c2ccc(F)cc2)s1, “urinary chloride excretion change” read -8.95 mEq (Japanese type 2 diabetes patients; 400 mg, day 17, 24 h urine collection; baseline: baseline).
N#Cc1ccc(-c2cnc3ccc(-c4ccc(C(=O)N5CCOCC5)cc4)cn23)cc1: “placebo-corrected change from baseline” 4.3 ms (refers to: PR interval; healthy volunteers; oral, 10 mg, fasted, time-averaged).
For CCc1nc(C(N)=O)c(Nc2ccc(N3CCC(N4CCN(C)CC4)CC3)c(OC)c2)nc1NC1CCOCC1, the AUC(0-24) was 3620 ng·h/mL (Japanese patients, plasma; oral, 200 mg, cycle 0 day -2, single dose, median).
For CC[C@H](C)[C@H](NC(=O)[C@H](CO)NC(=O)[C@H](CCCNC(=N)N)NC(C)=O)C(=O)N[C@H]1CSSC[C@@H](C(=O)N[C@H](C(N)=O)[C@@H](C)O)NC(=O)[C@H](CCCNC(=N)N)NC(=O)[C@H](Cc2c[nH]cn2)NC(=O)[C@H](Cc2cccc3ccccc23)NC(=O)CNC(=O)[C@H](Cc2c[nH]c3ccccc23)NC(=O)[C@H](CC(=O)O)NC(=O)[C@H](CCC(N)=O)NC(=O)[C@H](Cc2c[nH]c3ccccc23)NC(=O)[C@H](C(C)C)NC1=O, the retention factor was 2.612 ± 0.005 (isocratic RP-HPLC, C18; 32% acetonitrile, phosphate pH 7.4, 1% TFA; 25 °C).
For Cc1ccc(Sc2ccccc2N2CCNCC2)c(C)c1, “participants with TEAE” read 0% (refers to: blood in urine; healthy adult men; oral, 20 mg daily, 12 days).
CC(C(=O)NCC(=O)NCC(CNC(=O)CNC(=O)C(C)N1CCN(CC(=O)[O-])CCN(CC(=O)[O-])CCN(CC(=O)[O-])CC1)(CNC(=O)CNC(=O)C(C)N1CCN(CC(=O)[O-])CCN(CC(=O)[O-])CCN(CC(=O)[O-])CC1)CNC(=O)CNC(=O)C(C)N1CCN(CC(=O)[O-])CCN(CC(=O)[O-])CCN(CC(=O)[O-])CC1)N1CCN(CC(=O)[O-])CCN(CC(=O)[O-])CCN(CC(=O)[O-])CC1.[Gd+3].[Gd+3].[Gd+3].[Gd+3] (stereo not shown) — result for “cumulative fecal excretion”: 0.3% (ICP-MS; cynomolgus monkey, feces; 4 days post-injection; baseline: dose).
Under “subjects with TEAE”, CC(C)n1c(Nc2cccnc2)nc2cnc(Nc3ccc(N4CCN(C)CC4)cc3)nc21 is recorded as 2.4% (refers to: gum pain; healthy human, male; oral, dose not given, CTCAE grade 1-3).
With COc1cc(N2CCC3(CCN(C)CC3)CC2)ccc1Nc1ncc(Cl)c(Nc2ccccc2P(C)(C)=O)n1 the Ka was 1.06 h⁻¹ (population PK model; human; oral, base structural model).
COc1c(O)cc2c(c1O)C(=O)c1c(cc(C)c(O)c1OC)C2=O gave a viability of 86.8 ± 13.2% (HK-2 co-cultured with HepaRG; MTT; 66.67 µM, 24 h; baseline: untreated control).

Repeated from above:
For CCN1/C(=C/C(C)=O)Sc2ccc(F)cc21, “diastolic blood pressure change” read 114 ± 14.1% (cynomolgus monkey; oral, 10 mg/kg, 4 h post-dose; baseline: pre-dose).
Under “adverse event incidence”, O=C(COc1ccc(Cl)cc1)NC12CC(c3nnc([C@H]4C[C@@H](OC(F)(F)F)C4)o3)(C1)C2 is recorded as 44.4% (refers to: Headache; human; 200 mg once daily, 28 (unit not given)).
For Cc1ccc([C@@H]2O[C@H](CO)[C@@H](O)[C@H](O)[C@H]2O)cc1Cc1ccc(-c2ccc(F)cc2)s1, “urinary chloride excretion change” read -8.95 mEq (Japanese type 2 diabetes patients; 400 mg, day 17, 24 h urine collection; baseline: baseline).
